Results of several laboratories.
Compare with care: the assays were run in different laboratories. ± marks the error that the study gave.

For CCCCC[C@H](O)/C=C/[C@@H]1[C@@H](C/C=C\CCCC(=O)O)[C@H]2CO[C@@H]1C2, the Emax was 84.1 ± 2.7% (platelet aggregation, agonist, light transmission aggregometry; human platelet-rich plasma).
COc1c2c(cc3oc(C)cc(=O)c13)O[C@H](C(C)(C)O[C@@H]1O[C@H](CO)[C@@H](O)[C@H](O)[C@H]1O)C2 — result for “hot plate latency”: 11 ± 1.27 s (analgesia; mouse; oral, 2 mg/kg, 1.5 h).
COc1cc(CNC(=O)C[C@H](C)CCC=C(C)C)ccc1OCc1cn(-c2ccc(F)cc2)nn1 gave a growth percent of 68% (HOP-62; SRB; 10 µM, 48 h).
With CC(C)c1cnc(-c2cc(Cl)ccc2F)cc1Nc1ccncc1C(=O)NC(CO)CO the inhibition was 53 to 81% (SMAD2/3 phosphorylation, flow cytometry; human patients, peripheral monocytes; 250 and 375 mg, alone or with enzalutamide).
With COc1ccc(C2CC(c3ccc(C)cc3)=Nc3ccccc3S2)cc1OC (centres unmarked) the ALT (SGPT) was 23.7 ± 2.3 IU/L (Wistar rat, STZ-induced diabetes, serum; 10 mg/kg, 28 days).
For C=CC1=C(C)c2cc3[n-]c(cc4nc(cc5[n-]c(cc1n2)c(C)c5C=C)C(C)=C4CCC(=O)O)c(CCC(=O)O)c3C.[Cl-].[Fe+3], “lowest inhibitory concentration” read greater than 1.5 µM (in vitro translation, inhibitor; Trypanosoma cruzi translation extract; added: capped polyadenylated Renilla mRNA).
With CC(=O)[O-].Nc1ccc(C([O-])=NN=Cc2ccc(OCC(=O)Nc3ccc(Cl)cc3)cc2)cc1.O.O.O.[Cu+2] the inhibition was 74.7% (ABTS radical scavenging, ABTS; concentration not given, 6 min).
For CCCCCCOC(=O)Cc1c(C)n(C(=O)c2ccc(Cl)cc2)c2ccc(OC)cc12, “latency of nociceptive response” read 15.7 ± 1.31 s (hot plate test; BALB/c mice; 50 mg/kg, 120 min).
CCc1nnc(NS(=O)(=O)c2ccc(NC(=S)NC(=O)/C=C/c3ccc(F)cc3)cc2)s1 has a tumour weight of roughly 60% (BE(2)-C xenograft, athymic nude mice; intraperitoneal, 20 mg/kg daily, 3 weeks; baseline: vehicle).
C=C(c1ccc(C(=O)O)c(F)c1)c1cc2c(cc1C)C(C)(C)C=CC2(C)C — result for “log2 fold change”: -0.61 (RNA sequencing, item: Pdk4; rat, brain; dose not given, 24 h; baseline: vehicle).
The glucosylceramide level of CC(C)(O)c1ccc(N2Cc3c(ccnc3-c3ccc(F)cc3OCC(F)(F)F)C2=O)cc1 is reported as 79 ± 3% (Gaucher disease mouse model, plasma; 30 mg/kg, single dose; baseline: vehicle).
NCC(=O)N1CCC[C@H]1C(=O)NCC(=O)NCC(=O)O: “ΔG‡ at 298.15 K” 23.2 ± 1.91 kcal/mol (diketopiperazine formation, Arrhenius plot, ESI-MS; 1-propanol; 70, 80, 90 °C, 0.5% acetic acid).
O=C(Nc1ccc(C(F)(F)F)cc1Cl)c1cc(Cl)ccc1O — result for tumour growth: “inhibited” (SCID mice CWR22Rv1 xenograft; intraperitoneal, 25 mg/kg, 3 weeks).
For N[C@@H](Cc1ccccc1)C(=O)N1CCC[C@H]1C(=O)NCC(=O)NCC(=O)O, “ΔG‡ at 298.15 K” read 22.7 ± 1.91 kcal/mol (diketopiperazine formation, Arrhenius plot, ESI-MS; 1-propanol; 70, 80, 90 °C, 0.5% acetic acid).
CC(=O)[O-].O.O.O.O.[Ni+2].[O-]c1ccc(Br)cc1C=NCCN1CCOCC1 gave an inhibition of 55.4% (hydroxyl radical scavenging; 240 µM).
For CSCC[C@H](N)C(=O)N1CCC[C@H]1C(=O)NCC(=O)NCC(=O)O, “ΔG‡ at 298.15 K” read 23.2 ± 3.35 kcal/mol (diketopiperazine formation, Arrhenius plot, ESI-MS; 1-propanol; 70, 80, 90 °C, 0.5% acetic acid).
CC=C1C(OC2OC(CO)C(O)C(O)C2O)OC=C(C(=O)OC)C1CC(=O)OCC1OC(OCCc2ccc(O)cc2)C(O)C(O)C1O (centres unmarked) — result for “spleen to body weight ratio”: “decreased” (BALB/c mouse, orthotopic colon 26 tumour; oral, 109.2 mg/kg daily, 10 days; baseline: untreated tumour group).
CSCCNc1nc(SCCC(F)(F)F)nc2c1ncn2[C@@H]1O[C@H](COP(=O)(O)OP(=O)(O)C(Cl)(Cl)P(=O)(O)O)[C@@H](O)[C@H]1O — result for “patients with high reactivity”: 82% (ADP-induced platelet aggregation, LTA, >59% aggregation; human patients, platelet-rich plasma; dose not given, 3 h, added: ADP 20 µM).
Under “log2 fold change”, C=C(c1cc(F)c(C(=O)O)c(F)c1)c1cc2c(cc1C)C(C)(C)CCC2(C)C is recorded as 1.88 (RNA sequencing, item: Mta2; rat, brain; dose not given, 24 h; baseline: vehicle).
Oc1cc2nc(c1)CNCc1cc(O)cc(n1)CNC2 has an onset concentration of 100 µM (DPPH radical scavenging; tested range 1 to 1500 µM).
CCCCCCCCCCCCCC(=O)N1CCC[C@H]1C(=O)N[C@@H](CO)C(=O)N[C@@H](CCC(N)=O)C(=O)N[C@@H](CO)C(=O)N[C@@H](CCCCNC(=O)c1ccc(Br)cc1)C(=O)N[C@@H](CO)C(=O)N[C@@H](CCCCNC(=O)c1ccc(Br)cc1)C(=O)N[C@@H](C)C(=O)O — result for “Ki67-positive cells reduction”: roughly 5 fold (female SCID mouse, MDA-MB-231 fat pad xenograft, tumour; intratumoral, dose not given, alternate days for one month; baseline: vehicle).
Under beta-cell mass, CNc1oc(-c2cccc3ccccc23)nc1C#N is recorded as “no effect” (CD1 mice; ip, 24 mg/kg daily, 2 weeks).
Under “hot plate latency”, COc1c2c(cc3oc(CO)cc(=O)c13)O[C@H](C(C)(C)O)C2 is recorded as 11.4 ± 1.48 s (analgesia; mouse; oral, 1 mg/kg, 0.5 h).
The growth percent of COc1cc(CNC(=O)C[C@H](C)CCC=C(C)C)ccc1OCc1cn(-c2cccc([N+](=O)[O-])c2)nn1 is reported as 91.4% (HCC 2998; SRB; 10 µM, 48 h).
C=C1C[C@@]23CC[C@H]4[C@@](C)(CCC[C@@]4(C)C(=O)O[C@@H]4O[C@H](CO)[C@@H](O)[C@H](O)[C@H]4O)[C@@H]2CC[C@]1(O[C@@H]1O[C@H](CO[C@H]2O[C@H](CO)[C@@H](O)[C@H](O)[C@H]2O)[C@@H](O)[C@H](O)[C@H]1O[C@@H]1O[C@H](CO)[C@@H](O)[C@H](O)[C@H]1O)C3: protein level “decreased” (immunoblot, item: FAS; C57BL/6N mouse, high-fat diet, liver; drinking water, 0.2 g/L, 16 weeks).
For Cc1cc2c(cc1C1(c3ncc(C(=O)O)cn3)CC1)C(C)(C)CCC2(C)C, “log2 fold change” read -0.07 (RNA sequencing, item: Cav1 mRNA; rat, brain; dose not given, 24 h, single dose; baseline: vehicle).
With Cc1sc(-c2ccc(C(F)(F)F)cc2)nc1-c1nn[nH]c1C#N the HbA1c reduction was 0.45 percentage points (male ZDF rat; oral, 2 mg/kg/day, 1008 h; baseline: vehicle).
The ALT activity of COc1cc2c(cc1OC)-c1cc3ccc(OC)c(OC)c3c[n+]1CC2 is reported as 86.9 ± 2.87 U/L (rat, STZ-induced diabetic, serum; oral, 12 mg/kg, day 28).
For CC(CCC(=O)NCc1ccc(C(=O)NO)cc1)C1CCC2C3C(O)CC4CC(O)CCC4(C)C3CCC12C (centres unmarked), “acetylated α-tubulin level” read “increased” (immunoblot; PCK rats, kidney; dose not given; baseline: untreated).
With COc1ccc(C2CC(c3ccc(C)cc3)=Nc3ccccc3S2)cc1 (centres unmarked) the ALT (SGPT) was 24.4 ± 2.78 IU/L (Wistar rat, STZ-induced diabetes, serum; 10 mg/kg, 28 days).
Cc1nc(C)c(C=[N+]([O-])C(C)(C)C)nc1C: “increase in protein level” 26.1% (Western blot, item: MEF2D; MPTP mouse model, substantia nigra cytosol; 10 mg/kg).
O=C([O-])CN1CCN(CC(=O)[O-])CCN(CC(=O)NC[C@H]2CC[C@H](C(=O)N[C@H](Cc3cnc4ccccc4c3)C(=O)NCCCC[C@H](NC(=O)N[C@@H](CCC(=O)O)C(=O)O)C(=O)O)CC2)CCN(CC(=O)[O-])CC1.[64Cu+2] gave a mean SUVmax of 21.5 ± 17 (PET/CT; patients suspected prostate cancer, bone lesions; 2 h post-injection).
CCNS(=O)(=O)c1ccc(COc2ccc3nc4ccc(=O)cc-4oc3c2)cc1: lung colonisation “decreased” (4T1 GFP/luc, BALB/cJ mouse, tail vein injection; intravenous, 10 mg/kg daily, 7 days).
CCCCCCCOC(=O)Cc1c(C)n(C(=O)c2ccc(Cl)cc2)c2ccc(OC)cc12 — result for “latency of nociceptive response”: 16.6 ± 0.56 s (hot plate test; BALB/c mice; 100 mg/kg, 30 min).
CC[C@H](C)[C@@H]1NC(=O)[C@H](Cc2ccc(O)cc2)NC(=O)[C@@H](N)CSSC[C@@H](C(=O)N2CCC[C@H]2C(=O)N[C@@H](CCCCNC(=O)COCCOCCNC(=O)COCCOCCNC(=O)CC[C@H](NC(=O)CC[C@H](NC(=O)CCCCCCCCCCCCCCCCC(=O)O)C(=O)O)C(=O)O)C(=O)NCC(N)=O)NC(=O)[C@H](CC(N)=O)NC(=O)[C@H](CCC(N)=O)NC1=O: “onset of significant weight loss” 1 days (C57BL/6 mice, diet-induced obese; subcutaneous, 2 µmol/kg daily).
CC[C@H]1[C@@H](O)[C@@H]2[C@H](CC[C@]3(C)[C@@H]([C@H](C)CCOS(=O)(=O)[O-])CC[C@@H]23)[C@@]2(C)CC[C@@H](O)C[C@@H]12.[Na+]: “whole-body lean mass” 29.1 ± 0.6% (EchoMRI; ob/ob NASH mouse model; oral, 10 mg/kg once daily, before treatment, baseline of 8 week study; baseline: body weight).
With CC(C)(C)ONc1nc(Nc2ccnc(C(F)(F)F)c2)nc(-c2cccc(C(F)(F)F)n2)n1 the 2-HG level was 34 ng/mg (item: 2-hydroxyglutarate; mouse U-87 MG IDH2 R140Q xenograft, tumour; oral, 54.14 mg/kg, up to 0.5 h).
For N[C@@H](CCC(=O)O)C(=O)N1CCC[C@H]1C(=O)NCC(=O)NCC(=O)O, “ΔG‡ at 298.15 K” read 22.5 ± 3.59 kcal/mol (diketopiperazine formation, Arrhenius plot, ESI-MS; 1-propanol; 70, 80, 90 °C, 0.5% acetic acid).

For quick reference, copied from above:
O=C(Nc1ccc(C(F)(F)F)cc1Cl)c1cc(Cl)ccc1O — result for tumour growth: “inhibited” (SCID mice CWR22Rv1 xenograft; intraperitoneal, 25 mg/kg, 3 weeks).
For N[C@@H](Cc1ccccc1)C(=O)N1CCC[C@H]1C(=O)NCC(=O)NCC(=O)O, “ΔG‡ at 298.15 K” read 22.7 ± 1.91 kcal/mol (diketopiperazine formation, Arrhenius plot, ESI-MS; 1-propanol; 70, 80, 90 °C, 0.5% acetic acid).
CC(=O)[O-].O.O.O.O.[Ni+2].[O-]c1ccc(Br)cc1C=NCCN1CCOCC1 gave an inhibition of 55.4% (hydroxyl radical scavenging; 240 µM).
